Results from different studies.
Compare with care: the assays were run in different laboratories. Numbers after ± are the reported error.
Cell line: A2780

SMILES | effect on | technique | time | notes | IC50
Cc1cc(C)c([N+]#[C][Pt-]([Cl])([Cl])=[C](Nc2cccc(CN[C](NC(C)(C)C)=[Au][Cl])c2)Nc2c(C)cc(C)cc2C)c(C)c1 | cell growth or viability |  |  |  | > 100 µM
C[C@@H]1CC[C@@H]([C@@](O)(COCc2ccccc2)Cn2cnc3ccccc32)[C@H](OCc2ccccc2)C1 | cell growth or viability | MTT | 72 h |  | 5.3 µM
COc1ccc(CC2COC(=O)C2Cc2ccc3c(c2)OCO3)cc1OC (mixture of isomers) | cytotoxicity | MTT | 72 h |  | 8.75 ± 0.47 µM
Cc1c(C)n(-c2c(C(C)C)cccc2C(C)C)c(=[Se])n1-c1c(C(C)C)cccc1C(C)C.[Cl][Au] | cell growth or viability |  | 72 h | 3D culture | 9 µM
C=C1C(=O)[C@@]23CC[C@@H]4C(C)(C)CCC[C@@]4(COC(C)=O)[C@@H]2[C@@H](O)C[C@@H]1C3 (single isomer, unassigned) | cell growth or viability | MTT |  |  | 2.6 µM
C[C@@H]1CC[C@@H]([C@](O)(CNCc2ccccc2F)COCc2ccccc2)[C@H](OCc2ccccc2)C1 | cell growth or viability | MTT | 72 h |  | 3 µM
C=C1C(=O)C23CCC4C(C)(C)CCCC4(C)C2C(O)CC1C3 (single isomer, unassigned) | cell growth or viability | MTT |  |  | 0.9 µM
CC(C)c1cccc(C(C)C)c1[N+]#[C][Pt-2]([Cl])([Cl])[C]#[N+]c1c(C(C)C)cccc1C(C)C | cell growth or viability |  |  |  | > 100 µM
C#CCN(C(=O)OCc1ccc(C(=O)N(C)C)cc1)[c-]1cccc1.[Fe+2].c1cc[cH-]c1 | cell growth or viability | MTT | 48 h |  | 37.1 µM
Oc1ccc(Br)cc1C=NNC(=S)Nc1ccccc1 | cell growth or viability | MTT | 72 h |  | 0.6 µM
CC(C)c1cccc(C(C)C)c1-n1ccn(-c2c(C(C)C)cccc2C(C)C)c1=[Se].[Cl][Au] | cell growth or viability |  | 72 h | 3D culture | 8.7 µM
CC(C)c1cccc(C(C)C)c1N=[C](NCc1cccc(N)c1)[AuH][Cl] | cell growth or viability |  |  |  | 2.8 µM
CN(C)C(=S)N(C)N=Cc1ccccc1SSc1ccccc1C=NN(C)C(=S)N(C)C | cell growth or viability | MTT | 72 h |  | 0.14 µM
C[N+]1(C)CC[NH2+][Pt-2]1([OH])([Cl])([Cl])[O]C(=O)CCC(=O)OCCO | cell viability | EZ4U | 96 h |  | 22 ± 2 µM
CC(C)c1cccc(C(C)C)c1-n1c(Cl)c(Cl)n(-c2c(C(C)C)cccc2C(C)C)c1=[Se].[Cl][Au] | cell growth or viability | MTT | 72 h |  | 0.4 µM
COc1ccccc1CNC[C@@](O)(COCc1ccccc1)[C@@H]1CC[C@@H](C)C[C@H]1OCc1ccccc1 | cell growth or viability | MTT | 72 h |  | 2 µM
Oc1ccccc1-c1nn(-c2ccccn2)[n+](-c2ccccc2)n1 | cell growth or viability | resazurin | 72 h |  | 12 µM
CN(C)C(=O)c1ccc(COC(=O)N[c-]2cccc2)cc1.[Fe+2].c1cc[cH-]c1 | cell growth or viability | MTT | 48 h |  | 46.1 µM
CC(C)c1cccc(C(C)C)c1N1CCN(c2c(C(C)C)cccc2C(C)C)C1=[Se].[Cl][Ag] | cell growth or viability |  | 72 h | 3D culture | 23.5 µM
COc1ccc(COC[C@](O)(CNCc2ccccc2)[C@@H]2CC[C@@H](C)C[C@H]2OCc2ccc(OC)cc2)cc1 | cell growth or viability | MTT | 72 h |  | 0.93 µM

SMILES | effect on | technique | time | notes | IC50
CC(C)c1cccc(C(C)C)c1[N+]#[C][Pd-]([Cl])([Cl])=[C](Nc1ccc(CN[C](NC(C)(C)C)=[Au][Cl])cc1)Nc1c(C(C)C)cccc1C(C)C | cell growth or viability |  |  |  | > 100 µM
C[C@@H]1CC[C@@H]([C@@](O)(CNCc2ccc(F)cc2)COCc2ccccc2)[C@H](OCc2ccccc2)C1 | cell growth or viability | MTT | 72 h |  | 4.3 µM
C=C1C(=O)[C@@]23CC[C@@H]4C(C)(C)CCC[C@@]4(CO)[C@@H]2[C@@H](O)C[C@@H]1C3 | cell growth or viability | MTT |  |  | > 20 µM
COc1cc2c(cc1OCCCOc1no[n+]([O-])c1S(=O)(=O)c1ccccc1)CCC1C2CCC2(C)C(O)CCC12 (stereo not drawn) | cell growth or viability | MTT | 48 h |  | 0.104 µM
CC(C)(C)N=[C](NCc1cccc(N)c1)[AuH][Cl] | cell growth or viability |  |  |  | > 100 µM
[Fe+2].c1ccc(P(=NCc2ccccn2)(c2ccccc2)[c-]2cccc2)cc1.c1ccc(P(=NCc2ccccn2)(c2ccccc2)[c-]2cccc2)cc1 | cell growth or viability | MTT | 74 h |  | 5.3 µM
CC(C)=CCC1=C([O-])C(=O)c2ccccc2C1=O.O=[N+]([O-])[O-].[Cu+2].c1ccc(-c2cccc(-c3ccccn3)n2)nc1 | cell viability | MTT | 48 h |  | 0.5 ± 0.1 µM
[Cl][Au].[Se]=c1n(C23CC4CC(CC(C4)C2)C3)ccn1C12CC3CC(CC(C3)C1)C2 | cell growth or viability | MTT | 72 h |  | 0.6 µM
CC(=O)OC[C@H]1O[C@@H](Oc2ccc(C#[C][Pt+])cc2)[C@H](OC(C)=O)[C@@H](OC(C)=O)[C@@H]1OC(C)=O.O=S(=O)([O-])C(F)(F)F.c1ccc(-c2cccc(-c3ccccn3)n2)nc1 | cell growth or viability |  | 72 h |  | 3.66 µM
CC12CCC3c4ccc(OCCCOc5no[n+]([O-])c5S(=O)(=O)c5ccccc5)cc4CCC3C1CCC2O (stereo not drawn) | cell growth or viability | MTT | 48 h |  | 0.053 µM
[Cl][Pd-2]1([Cl])[N+](=P(c2ccccc2)(c2ccccc2)c2ccccc2)Cc2cccc[n+]21 | cell growth or viability | MTT | 74 h |  | 7.1 µM
C[C@@H]1CC[C@@H]([C@](O)(CNCc2cccc(F)c2)COCc2ccccc2)[C@H](OCc2ccccc2)C1 | cell growth or viability | MTT | 72 h |  | 1.4 µM
CC(C)c1cccc(C(C)C)c1[N+]#[C][Pt-]([Cl])([Cl])=[C](Nc1ccc(CN[C](Nc2c(C(C)C)cccc2C(C)C)=[Au][Cl])cc1)Nc1c(C(C)C)cccc1C(C)C | cell growth or viability |  |  |  | 13.4 µM
[Cl][Au+][Cl].[O-][Cl+3]([O-])([O-])[O-].c1ccc(P(=NCc2ccccn2)(c2ccccc2)c2ccccc2)cc1 | cell growth or viability | MTT | 74 h |  | 19 µM
CC(C)=CCC1=C([O-])C(=O)c2ccccc2C1=O.CC(C)=CCC1=C([O-])C(=O)c2ccccc2C1=O.[Cu+2].c1ccc(-c2ccnc3c2ccc2c(-c4ccccc4)ccnc23)cc1 | cell viability | MTT | 72 h |  | 0.33 ± 0.01 µM
Cc1cc(C)c([N+]#[C][Pt-]([Cl])([Cl])=[C](Nc2cccc(CN[C](Nc3c(C(C)C)cccc3C(C)C)=[Au][Cl])c2)Nc2c(C)cc(C)cc2C)c(C)c1 | cell growth or viability |  |  |  | > 100 µM
COc1cccc(CNC[C@](O)(COCc2ccccc2)[C@@H]2CC[C@@H](C)C[C@H]2OCc2ccccc2)c1 | cell growth or viability | MTT | 72 h |  | 0.85 µM
Oc1ccccc1-n1nc(-c2ccccc2)n[n+]1-c1ccccc1 | cell growth or viability | resazurin | 72 h |  | 160 µM
Cc1cc(C)c([N+]#[C][Pd-]([Cl])([Cl])=[C](Nc2cccc(CN[C](NC(C)(C)C)=[Au][Cl])c2)Nc2c(C)cc(C)cc2C)c(C)c1 | cell growth or viability |  |  |  | > 100 µM
